Assay results collected from several papers.
A part holds a random share of what one study measured. Substitutions count along the parent as printed.

Block 1 — method: RNAcompete; molecule type: RNA; matrix: in vitro; tested at: 20 nM; notes: 7-mer, probes averaged, single round; baseline: mean of 7-mers; reading: higher = stronger binding; endpoint: 7-mer Z-score
Target: PABPC1L2, full length, GST fusion (mouse, UniProt A0ABA7IW68)
Construct (chain): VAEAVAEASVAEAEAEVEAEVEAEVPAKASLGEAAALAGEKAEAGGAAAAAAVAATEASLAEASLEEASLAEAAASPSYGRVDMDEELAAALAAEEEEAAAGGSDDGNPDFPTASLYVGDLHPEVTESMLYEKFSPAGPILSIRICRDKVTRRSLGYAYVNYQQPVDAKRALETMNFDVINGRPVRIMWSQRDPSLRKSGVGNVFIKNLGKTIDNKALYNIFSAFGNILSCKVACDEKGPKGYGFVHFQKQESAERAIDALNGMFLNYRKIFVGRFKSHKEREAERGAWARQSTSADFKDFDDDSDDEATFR
ACCUCCU: -0.387
UGAAAAU: 2.32
CAGAAUA: 0.137
CGUAUGA: -0.161
CAGGUAC: -0.0428
UGCGUUC: -0.345
AAAUGAG: 1.15
GCAGCCA: -0.0591
UUAGAAG: 0.0388
UUUGAUU: -0.139
GCUCGGG: 0.00979
AGCUGCG: -0.193
GUUUUCG: -0.423
CAGUACA: 0.131
AGUGCGU: -0.26
CUAGCUU: -0.344
AUAAAAA: 12.9
ACAUUCG: -0.0482
AUUCAUU: -0.224
CGAGGAA: 0.318
CAAGGAG: 0.254
AUGUUGU: -0.244
CUGUACG: -0.278

Block 2 — method: protein-binding microarray; molecule type: double-stranded DNA, one strand shown; matrix: in vitro; tested at: 2540 nM top; notes: 60-bp whole probe; with: salmon DNA 0.4 mg/ml; baseline: random background probes; reading: higher = stronger binding; endpoint: fitted relative affinity; all sequences stand within: GCCTAGCAC … GTCTTGATTCGCTTGACGCTGCTG
Target: Interferon regulatory factor 3, full length, phosphomimetic (IRF3, Homo sapiens, UniProt Q14653, residues 1-427, S386D/S396D/S398D/S402D/T404D/S405D)
Residues (chain): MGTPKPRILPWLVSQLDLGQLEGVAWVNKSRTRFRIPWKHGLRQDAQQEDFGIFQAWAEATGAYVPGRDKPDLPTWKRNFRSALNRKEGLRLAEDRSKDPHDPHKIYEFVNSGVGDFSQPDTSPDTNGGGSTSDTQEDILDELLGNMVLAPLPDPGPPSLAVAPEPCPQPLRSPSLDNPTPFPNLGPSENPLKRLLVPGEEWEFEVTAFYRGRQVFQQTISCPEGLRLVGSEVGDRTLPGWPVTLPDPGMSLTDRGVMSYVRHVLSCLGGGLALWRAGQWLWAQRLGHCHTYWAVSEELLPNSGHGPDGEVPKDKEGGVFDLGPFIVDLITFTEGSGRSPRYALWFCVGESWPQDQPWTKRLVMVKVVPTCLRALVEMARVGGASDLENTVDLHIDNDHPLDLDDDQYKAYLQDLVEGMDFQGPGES
GACGGTCACCTTATCCTGACGTGCTAG: 1.12 z-score
GACGGTTTCGGACTGGAGACGTGCTAG: 4.86 z-score
CTCACCTCAGCCTCCCAAGTGTGCTAG: 0.212 z-score
TCAGTCCTGGCTTTGACACTGTGCTAG: -0.458 z-score
TCACCTTTCGGAATACCACTGTGCTAG: 3.72 z-score
TTAGATTTCAGGTATCGATTAGTGCTA: 1.09 z-score
TCATTTCTCTTATTCTAACTGTGCTAG: 2.84 z-score
CTGCAGCCCACTCCTGAACAGTGCTAG: -0.56 z-score
TCATGTTTGAGAAATCAGACTGTGCTA: -0.0317 z-score
TCATTTTTTTTTGTATTACTGTGCTAG: 1.16 z-score
GACGGTCTCCTACAGCTGACGTGCTAG: 0.333 z-score
GACCGTCTCGGTATCGGGACGTGCTAG: 2.41 z-score
GACGGACTGGGTTTCGGGAGGTGCTAG: 0.541 z-score
TTAGCTATCGACACTGGGTTAGTGCTA: -0.524 z-score
GACGAACTGAGTCTCGAAACGTGCTAG: -0.0279 z-score
GACGATGCCAGTTTCGAGACGTGCTAG: 1.49 z-score
GACGGACTGCTTCTCCTGTCGTGCTAG: 0.0413 z-score
TTATGTATCCTTTTCCTTTAGTGCTAG: 8.36 z-score
GTAGGTTTCGGTTTCGGTTAGTGCTAG: 11.9 z-score

Block 3 — method: DHFR PCA, deep sequencing; matrix: yeast; with: (+)-ABA 58 µM; baseline: wild-type fitted maximum; reading: higher = stronger binding; endpoint: relative binding score
Target: ABI1, truncated, D143A, DHFR fusion (Arabidopsis thaliana)
Notes: methotrexate growth selection, single substitutions
Parent: PYL1, truncated, DHFR fusion (Arabidopsis thaliana); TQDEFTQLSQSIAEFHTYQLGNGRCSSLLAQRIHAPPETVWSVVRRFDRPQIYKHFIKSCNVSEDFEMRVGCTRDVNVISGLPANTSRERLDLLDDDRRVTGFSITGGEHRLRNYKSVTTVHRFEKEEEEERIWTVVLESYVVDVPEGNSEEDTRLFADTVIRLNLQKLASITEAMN; partner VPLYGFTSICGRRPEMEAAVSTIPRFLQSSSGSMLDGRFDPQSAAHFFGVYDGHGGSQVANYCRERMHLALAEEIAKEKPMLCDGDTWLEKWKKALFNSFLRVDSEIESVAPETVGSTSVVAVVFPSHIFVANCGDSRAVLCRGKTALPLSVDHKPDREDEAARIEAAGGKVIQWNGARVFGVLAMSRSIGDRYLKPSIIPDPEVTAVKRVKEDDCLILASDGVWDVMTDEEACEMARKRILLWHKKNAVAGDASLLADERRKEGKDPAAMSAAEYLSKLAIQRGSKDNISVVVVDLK
H122V: 27.5%
P146R: 4.27%
A170F: -18.5%
Q2N: 85.2%
V78T: 70%
D48Y: 7.89%
T1W: 80.5%
F15A: 25.6%
R49C: 79.8%
V70Y: 30.8%
R45Y: -1.61%
F103G: -2.86%

Block 4 — method: competition protein-binding microarray; molecule type: double-stranded DNA, one strand shown; matrix: in vitro; tested at: 2 µM; with: Cbf1 competitor, 0.05 µM; reading: higher = stronger binding; endpoint: fluorescence intensity; all sequences stand within: … GTCTTGATTCGCTTGACGCTGCTG
Target: Phosphate system positive regulatory protein PHO4, full length, GST-tagged (PHO4, Saccharomyces cerevisiae, UniProt P07270, residues 1-312)
Notes: whole 60-bp probe, lowest competitor level
Target sequence (chain): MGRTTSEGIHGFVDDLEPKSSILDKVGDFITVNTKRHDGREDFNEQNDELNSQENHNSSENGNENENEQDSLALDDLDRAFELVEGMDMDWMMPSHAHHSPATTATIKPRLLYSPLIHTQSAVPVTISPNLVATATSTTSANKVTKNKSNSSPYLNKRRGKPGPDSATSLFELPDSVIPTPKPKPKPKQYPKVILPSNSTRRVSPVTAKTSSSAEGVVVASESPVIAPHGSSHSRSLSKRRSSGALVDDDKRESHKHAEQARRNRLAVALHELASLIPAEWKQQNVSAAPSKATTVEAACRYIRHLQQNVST
GGGCCAAGCGAGAGTCACGTGCTTTACAGGCCTGCC: 15100 a.u.
CTTTCCCGATCTTGTGACGTGGGTGTAGCACATTTG: 7050 a.u.
CTTTCCCGATCTTGGCAAGTGGGTGTAGCACATTTG: 4690 a.u.
GAGAAATAGTCATCGTTTTCAACGGAAGCTGAAATA: 3720 a.u.
GTAGCAGAGAAAATCCACGTTTGGGCCGCGATGGCA: 7960 a.u.
ATTTCGCCCAGAGCGCACATGATCGGGTAGATAACC: 10200 a.u.
ATGGTTGTCTATGCTTCCGTGGGTATCACCAGATTA: 4520 a.u.
CCTTACAGGAGATCGGACGTGTGAAATTATTGTTAC: 4660 a.u.
TTATCTAGCTCTGCCCACATGTGTGTTAACGAAGCA: 10600 a.u.
CTAACGAAGGTTTGTCACCATACTTACAAGCCAAGT: 3800 a.u.
CGTCCTAGTGATTGCAGCGTGGGTGCCATGAGGAAG: 9890 a.u.
AATTGGTAAAACCATCACGTTTATGTTTTATTAAAA: 12000 a.u.
CTTTCCCGATCTTGCAACGTGGGTGTAGCACATTTG: 14500 a.u.
CGTCCTAGTGATTGTATGGTGGGTGCCATGAGGAAG: 7550 a.u.
CCTTTGGTTTAGATGCACGTGTTGACGACATGAAAG: 17600 a.u.
GATGATGTGCTTGTCATCGTGGGTAACTTCACCAGC: 9310 a.u.
AACAAGGGCATTTTTCACGTGCCGATGAGCAGCAAG: 14400 a.u.

Block 5 — method: protein binding microarray; molecule type: double-stranded DNA, one strand shown; matrix: in vitro; tested at: not given; baseline: not given; reading: higher = stronger binding; endpoint: E-score
Target: Histone acetyltransferase KAT6A, both winged helices, GST fusion (KAT6A, Homo sapiens, UniProt Q92794, residues 1-181)
Notes: 8-mer, flanks averaged, mean of 2 arrays, mostly near background
Construct (chain): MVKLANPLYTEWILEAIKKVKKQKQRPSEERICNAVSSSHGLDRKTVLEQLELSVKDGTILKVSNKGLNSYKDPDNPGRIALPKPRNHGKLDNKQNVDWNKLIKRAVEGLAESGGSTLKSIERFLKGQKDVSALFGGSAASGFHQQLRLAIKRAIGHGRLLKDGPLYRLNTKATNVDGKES
TACGCGGA: 0.281
CCGGAGAA: 0.164
CCTCAACG: -0.0416
GGCTGGAA: -0.129
ATAATAAC: -0.0182
ATCATAGG: 0.0114
CCGGCGTA: 0.259
GAGAGGTA: -0.192
GAATGGTC: 0.0576
ACTCTTCC: -0.0123
TAAAATCA: -0.101

Block 6 — target: CCNE1, cyclin fold, Cln2 fusion (human); method: yeast growth competition, sequencing; matrix: yeast; notes: strong parent motif; baseline: not given; reading: higher = stronger binding; endpoint: normalised enrichment score
Parent: CDKN1A docking peptide (human); SKACRRLFGPVDS; partner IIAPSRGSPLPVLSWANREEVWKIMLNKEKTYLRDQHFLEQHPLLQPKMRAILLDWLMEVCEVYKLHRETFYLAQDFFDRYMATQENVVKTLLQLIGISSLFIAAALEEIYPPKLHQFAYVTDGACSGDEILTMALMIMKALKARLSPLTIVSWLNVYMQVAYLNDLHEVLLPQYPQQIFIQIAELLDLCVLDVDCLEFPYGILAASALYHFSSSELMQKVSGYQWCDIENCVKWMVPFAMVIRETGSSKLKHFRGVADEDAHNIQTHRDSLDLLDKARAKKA
P10V: 4.65
C4W: 0.944
V11N: 5.67
F8A: -0.0224
G9N: 4.84
R6V: 5.53
R6F: 1.97
G9C: 5.09
K2A: 4.5
C4Y: 0.0681
G9Q: 5.83
R6D: 1.46
F8H: 0.122
G9P: 5.7
R5A: 0.445
F8D: 0.225
K2P: 4.58

Block 7 — method: universal PBM; molecule type: double-stranded DNA, one strand shown; matrix: in vitro; tested at: 600 nM; reading: higher = stronger binding; endpoint: E-score
Target: Sal-like protein 4, full length isoform A (SALL4, Homo sapiens, UniProt Q9UJQ4, residues 1-1053)
Chain of UniProt Q9UJQ4 (whole entry, looked up): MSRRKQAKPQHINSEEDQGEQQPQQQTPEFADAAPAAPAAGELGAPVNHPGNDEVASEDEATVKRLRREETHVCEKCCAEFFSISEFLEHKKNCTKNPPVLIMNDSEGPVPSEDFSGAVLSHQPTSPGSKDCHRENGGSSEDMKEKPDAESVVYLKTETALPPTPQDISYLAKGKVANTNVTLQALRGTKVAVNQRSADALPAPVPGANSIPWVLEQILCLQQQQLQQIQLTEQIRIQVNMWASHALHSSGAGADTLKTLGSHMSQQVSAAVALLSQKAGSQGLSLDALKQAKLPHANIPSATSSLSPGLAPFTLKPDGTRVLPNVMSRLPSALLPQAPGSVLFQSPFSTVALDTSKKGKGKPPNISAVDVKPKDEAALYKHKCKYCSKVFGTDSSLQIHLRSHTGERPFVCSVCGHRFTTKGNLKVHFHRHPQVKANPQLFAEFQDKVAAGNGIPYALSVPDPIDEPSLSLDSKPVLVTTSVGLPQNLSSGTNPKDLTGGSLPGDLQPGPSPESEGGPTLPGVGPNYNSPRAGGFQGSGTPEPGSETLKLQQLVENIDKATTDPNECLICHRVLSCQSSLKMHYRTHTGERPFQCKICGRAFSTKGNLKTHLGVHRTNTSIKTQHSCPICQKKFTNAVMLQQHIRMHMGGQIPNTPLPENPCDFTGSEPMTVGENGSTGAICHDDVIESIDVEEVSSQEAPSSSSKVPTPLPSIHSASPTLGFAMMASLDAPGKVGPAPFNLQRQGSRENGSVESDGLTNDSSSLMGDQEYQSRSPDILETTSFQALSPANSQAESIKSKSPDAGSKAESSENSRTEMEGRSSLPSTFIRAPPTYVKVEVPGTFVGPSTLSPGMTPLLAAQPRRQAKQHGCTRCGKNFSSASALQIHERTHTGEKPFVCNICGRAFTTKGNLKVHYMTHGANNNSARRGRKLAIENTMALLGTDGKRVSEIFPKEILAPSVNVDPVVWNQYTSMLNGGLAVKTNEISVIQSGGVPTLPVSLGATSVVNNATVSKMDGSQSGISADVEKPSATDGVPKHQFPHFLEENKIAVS
Notes: 8-mer, flanks averaged, mean of replicates
GCCACTTA: 0.0324
AGGCTGTA: 0.121
AGTCGATG: 0.0288
CGAACAAA: 0.0971
GTTAAATA: 0.334
AGATACAA: 0.316
ACTCTTGG: -0.0886
AGGACCAG: -0.26
CCAGCTGA: -0.125
TAGATAGA: 0.169
AGAGCACG: -0.185
AGATAGCC: -0.204
GACCATTA: 0.233
AGTATAGA: 0.217
AGGTCCGA: -0.152
GATCGCAC: -0.0392
ACTCTGCC: 0.00692
CGGTCGCA: -0.241
AGGCTAAT: 0.111
ACAGTTAT: 0.293
GGCAAATA: 0.252
CCCAACCC: -0.181
CAAATCTC: 0.0343
GACCGGTA: -0.313
CGCAACTC: -0.0133

A few entries again (block 5):
TACGCGGA: 0.281
CCGGAGAA: 0.164
CCTCAACG: -0.0416
GGCTGGAA: -0.129
ATAATAAC: -0.0182
ATCATAGG: 0.0114
CCGGCGTA: 0.259
GAGAGGTA: -0.192
GAATGGTC: 0.0576
ACTCTTCC: -0.0123
TAAAATCA: -0.101
